Measured values from different studies.
Lines come from different studies, so protocols differ.

COc1c(OCCCN2CCOCC2)ccc2c1N=C(NC(=O)c1cnc(N)nc1)N1CCN=C21
patients with adverse event (item: Any; patients with advanced malignancies; intravenous, dose not given, any grade, all cohorts, with: gemcitabine): 100%

CN1CC[C@@H](c2c(O)cc(O)c3c(=O)cc(-c4ccc(C(F)(F)F)cc4Cl)oc23)[C@@H]1CO
patients with adverse event (item: Lymphopenia; relapsed or refractory haematological malignancies; oral, dose not given, grade 3 to 4, all arms): 7.5%

CC(=O)c1c(C)c2cnc(Nc3ccc(C4CCN(CCS(C)(=O)=O)CC4)cn3)nc2n(C2CCCC2)c1=O
patients with TEAE grade ≥3 (HR+/HER2- advanced breast cancer patients; oral, 150 mg): 66.7%

C=CCNc1c(O)cc2c(O)c1C[C@@H](C)C[C@H](OC)[C@H](O)[C@@H](C)/C=C(\C)[C@H](OC(N)=O)[C@@H](OC)/C=C\C=C(/C)C(=O)N2
patients with headache TEAE (unresectable or metastatic STS, GIST, other; intravenous, 300 mg/m^2): 33%

O=C1Nc2cc3[nH]nc(-c4ccncc4)c3cc2CN1Cc1ccccc1
patients with blurred vision (CTCAE v4.03; advanced solid tumour patients; intravenous, 1.8 mg/kg, schedules 1/2): 0%

CCN(CCO)CCCC(C)Nc1ccnc2cc(Cl)ccc12 (centres unmarked)
patients with adverse event (item: Epistaxis grade 1; newly diagnosed glioblastoma patients; oral, 800 mg/dose, with radiotherapy and temozolomide): 33%

Nc1nc2cc(-c3ccc4ncc(C(=O)N5CCOCC5)n4c3)ccc2o1
patients with adverse events (all-cause adverse events, grade ≥3; patients with advanced solid tumours; dose not given): 54%

N[C@@H]1c2ccccc2OC12CCN(c1cnc3c(N4CCCc5ncccc54)n[nH]c3n1)CC2
patients with serious TEAE (advanced solid tumour patients; oral, 10 mg once daily): 0%

Some of these lines once more:
CCN(CCO)CCCC(C)Nc1ccnc2cc(Cl)ccc12 (centres unmarked)
patients with adverse event (item: Epistaxis grade 1; newly diagnosed glioblastoma patients; oral, 800 mg/dose, with radiotherapy and temozolomide): 33%
